Assay results of several laboratories.
Lines come from different studies, so protocols differ. ± marks the error that the study gave.

For `Cc1cc(C)c(CNC(=O)c2cc(Cl)c3c(c2C)O[C@@](C)([C@H]2CC[C@H](N(C)C)CC2)O3)c(=O)[nH]1`, the t1/2 was 17.2 h (measured: total radioactivity; human, male, plasma; oral, 200 mg, [14C]-labelled, mean).
With `CC[C@H](Nc1ncnc2[nH]cnc12)c1oc2ccccc2c(=O)c1-c1cccc(F)c1` the t1/2 was 3.8 ± 1.29 h (human patients, plasma; oral, 600 mg twice daily, added: romidepsin 12 mg/m2).
With `NC(=S)NN=Cc1ncccc1N` the t1/2 was 1.3 h (human, plasma; intravenous, 50 mg, geometric mean).
For `C[C@@H](Nc1cc(F)cc(F)c1)c1cc(C(=O)N(C)C)cc2c(=O)cc(N3CCOCC3)oc12`, “t1/2 geometric mean” read 4.45 h (human, plasma; oral, 120 mg, day 1 single dose).
`Cl.[2H]C([2H])([2H])CC(=O)c1cnc(NC(=O)C2CC2)cc1Nc1cccc(-c2ncn(C([2H])([2H])[2H])n2)c1OC` gave a t1/2 of 7.6 h (human, fasted, plasma; oral, 25 mg, single dose, liquid formulation).
With `C[C@H]1CNCCCN1S(=O)(=O)c1cccc2cncc(F)c12` the t1/2 was 0.25 h (human, male, plasma; ocular instillation, 1 drop per eye twice daily, day 8).
The t1/2 of `CCCOc1ccc(NC(=O)CN2CCN(C)CC2)cc1-c1nc(CC)c(CC)c(=O)[nH]1` is reported as 9.72 ± 2.17 h (human, fasting, plasma; oral, 10 mg, added: placebo).
With `O=C(/C=C/CN1CCCCC1)Nc1cc2c(Nc3ccc(F)c(Cl)c3)ncnc2cc1O` the t1/2 was 63.5 h (human, plasma; oral, 30 mg).
For `C[C@]12C=CC(=O)C=C1CC[C@@H]1[C@@H]2[C@@H](O)C[C@@]2(C)[C@H]1CC[C@]2(O)C(=O)CO`, the t1/2 was 2.27 h (human; oral, dose not given).
`N#CCC1CCN(c2nc(Nc3ccc(N4CCC(O)CC4)cc3)c3c(=O)[nH]ncc3n2)CC1` gave a t1/2 of 6.62 h (human, plasma; oral, 20 mg once daily, day 1).
`Cc1cn([C@H]2C[C@H](N=[N+]=[N-])[C@@H](CO)O2)c(=O)[nH]c1=O` has a t1/2 of 2.49 ± 0.638 h (human, both sexes, PBMCs; oral, 600 mg, single dose).
